Measurements of several laboratories.
Every numbered part comes from another study and shows a few of its results, in no order. Changes are numbered by the printed parent chain.

Study 1
Target: ABI1, truncated, D143A, DHFR fusion (Arabidopsis thaliana)
Method: DHFR PCA, deep sequencing
Matrix: yeast
Notes: methotrexate growth selection, single substitutions
Together with: (+)-ABA 710 µM
Baseline: wild-type fitted maximum
Direction: higher = stronger binding
Starting sequence: PYL1, truncated, DHFR fusion (Arabidopsis thaliana); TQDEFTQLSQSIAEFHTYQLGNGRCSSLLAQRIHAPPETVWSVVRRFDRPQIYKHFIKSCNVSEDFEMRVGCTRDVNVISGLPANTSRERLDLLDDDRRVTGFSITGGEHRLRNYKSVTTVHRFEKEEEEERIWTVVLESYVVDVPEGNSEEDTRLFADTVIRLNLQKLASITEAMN; partner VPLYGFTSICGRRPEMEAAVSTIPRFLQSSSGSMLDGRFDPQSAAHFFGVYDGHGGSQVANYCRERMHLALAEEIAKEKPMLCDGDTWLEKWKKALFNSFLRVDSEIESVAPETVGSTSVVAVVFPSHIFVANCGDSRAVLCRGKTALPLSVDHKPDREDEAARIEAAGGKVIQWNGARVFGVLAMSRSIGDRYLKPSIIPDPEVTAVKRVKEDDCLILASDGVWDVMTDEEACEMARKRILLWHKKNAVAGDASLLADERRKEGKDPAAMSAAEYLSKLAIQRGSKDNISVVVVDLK
`S140E` — result for “relative binding score”: 11.7%.
`Y53C`: “relative binding score” 65.7%.
`Q2H`: “relative binding score” 102%.
Under “relative binding score”, `R74G` is recorded as 1.12%.
`V142S` — result for “relative binding score”: 101%.
`L91E`: “relative binding score” 8.62%.
`E127I` — result for “relative binding score”: 103%.
For `F103L`, “relative binding score” read 55.5%.
Under “relative binding score”, `S104Y` is recorded as 63.7%.
`E109H`: “relative binding score” 108%.
For `L8V`, “relative binding score” read 87.2%.
Under “relative binding score”, `F124K` is recorded as 90.8%.
`D3P` — result for “relative binding score”: 105%.
Under “relative binding score”, `K54A` is recorded as -11.1%.
`H55N`: “relative binding score” 102%.
Under “relative binding score”, `R113W` is recorded as 88.7%.
For `P50L`, “relative binding score” read -2.51%.

Study 2
Target: Cyclic AMP-dependent transcription factor ATF-1 (ATF1, Homo sapiens, UniProt P18846, residues 1-271, full length assumed)
Method: protein-binding microarray
Form: double-stranded DNA, one strand shown
Matrix: in vitro
Concentration: not given
Notes: k-mer, scored over probes, only values ≥0.25
Direction: higher = stronger binding
Construct (chain): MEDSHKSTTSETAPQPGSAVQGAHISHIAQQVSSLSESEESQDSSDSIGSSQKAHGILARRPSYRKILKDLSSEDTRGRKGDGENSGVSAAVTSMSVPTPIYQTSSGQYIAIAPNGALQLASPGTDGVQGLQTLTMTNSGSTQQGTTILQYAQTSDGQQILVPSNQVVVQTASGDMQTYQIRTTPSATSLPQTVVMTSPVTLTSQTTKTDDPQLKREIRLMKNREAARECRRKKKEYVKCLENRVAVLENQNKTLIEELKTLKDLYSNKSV
With `ACGACGT` the E-score was 0.383.
`ACGCATC` gave an E-score of 0.308.
`AGTTACG` has an E-score of 0.265.
`ACGTACT` has an E-score of 0.338.
The E-score of `AAACACA` is reported as 0.253.
For `GACGTAC`, the E-score was 0.379.
The E-score of `CGTGTTA` is reported as 0.26.
With `ACACCAA` the E-score was 0.289.
For `CACGTTA`, the E-score was 0.251.
For `ACGTGTG`, the E-score was 0.363.
`GTCATCA` gave an E-score of 0.405.
For `AGGTGAC`, the E-score was 0.305.
For `CTCTGAC`, the E-score was 0.28.

Study 3
Target: Sal-like protein 4, full length isoform B (SALL4, Homo sapiens, UniProt Q9UJQ4-2, residues 1-616)
Method: universal PBM
Form: double-stranded DNA, one strand shown
Matrix: in vitro
Concentration: not given
Notes: 8-mer, flanks averaged, mean of replicates
Direction: higher = stronger binding
`CTTCCGTC` has an E-score of -0.187.
`CGTGACCC` has an E-score of -0.282.
The E-score of `GGAAGCGA` is reported as -0.109.
With `GGCGCAAA` the E-score was -0.185.
For `CTTGCCGA`, the E-score was 0.00304.
With `ACCGGGGC` the E-score was -0.395.
The E-score of `AGTCGCCG` is reported as -0.336.
`CTTTAGTA` gave an E-score of 0.0609.
With `CTAACGAC` the E-score was -0.0482.
The E-score of `CCTTCCAG` is reported as -0.218.
`GCTGCAAA` gave an E-score of 0.127.
With `TAGGTACA` the E-score was 0.0932.
The E-score of `AGATTACC` is reported as 0.104.
`AGATCGAA` has an E-score of 0.167.
With `AAAGGCGC` the E-score was -0.21.
`AAGAACGA` gave an E-score of 0.0716.
For `AACATCCA`, the E-score was -0.00305.
For `CAATGAGG`, the E-score was -0.125.
`CTAGGACA` has an E-score of 0.0857.
For `GGTGGAAA`, the E-score was -0.139.
With `AATTAGGC` the E-score was 0.2.
`GGTGTCAC` gave an E-score of -0.16.

Single results of other studies
`PhoQ, residues 284 288 289 292 302 303 SIHLQL` has a fold induction of 14.6 (PhoP, residues 12 14 15 18 19 STHWV (Escherichia coli, UniProt P23836); Sort-seq, measured: YFP reporter; E. coli; PhoQ-PhoP variant library, together with: 10 µM Mg2+; baseline: high Mg2+ state, higher = stronger signaling).

Excerpt of the above (study 3):
The E-score of `AGATTACC` is reported as 0.104.
`AGATCGAA` has an E-score of 0.167.
With `AAAGGCGC` the E-score was -0.21.
`AAGAACGA` gave an E-score of 0.0716.
For `AACATCCA`, the E-score was -0.00305.
